Measurements from different studies.
Numbered parts are unrelated; each lists some results of a single study. Positions count from the first letter of the parent shown.

Block 1
Target: CCNA1, cyclin fold, Cln2 fusion (human)
Technique: yeast growth competition, sequencing
Matrix: yeast
Notes: weak parent motif
Baseline: not given
Reading: higher = stronger binding
Endpoint: normalised enrichment score
Starting sequence: E2F3 docking peptide (human); PPAKRRLELGESG
PPAKRRLELAESG [G10A]: 0.613
PPAKRRLEAGESG [L9A]: 0.464
PPAKRRLALGESG [E8A]: 0.33
PPAKRRLELGEAG [S12A]: 0.552
PPAKRALELGESG [R6A]: 0.353
PPAKRRLELGESA [G13A]: 0.383
PPAKKRLELGESG [R5K]: -0.362

Block 2
Target: RNA binding protein fox-1 homolog 2, RRM domain, GST-SBP tag (RBFOX2, Homo sapiens, UniProt O43251-10, residues 100-194)
Technique: RNA Bind-n-Seq
Molecule type: RNA
Matrix: in vitro
Concentration: 365 nM
Notes: natural RNA segment, single round, ends assumed
Baseline: no-protein control
Reading: higher = stronger binding
Endpoint: RBNS enrichment (R)
Constant ends, left off below: GGGAGUUCUACAGUCCGACGAUC … UGGAAUUCUCGGGUGCCAA
Residues (chain): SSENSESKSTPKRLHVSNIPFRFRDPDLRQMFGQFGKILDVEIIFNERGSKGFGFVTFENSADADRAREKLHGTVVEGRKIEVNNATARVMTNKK
UUGAAGCUGCCCAGGAUUUUAACAGUCCAGUUCUACUGUAGCAACAUAGCAAAAAGAAAGUGGCUACAGGAUUGUGGCUAACAAGAAUAAAUACAUGGGAAAAGUGCUCC: 0.383
CUUUGGAUGGAAACCAUUCUUUAUAUUGAUGGACAGUUUUCAGAAAACUAUCAACAGGUGUACAAGAGUCAUGUUCAUUUAGAAUAGAGCAGUGUAAAUGCUAGGCCUCA: 0.297
GCUCAAAUAGUCUAUACCUGAACUGCUAUAAGCAAGGUCGAUAGGGAAGUGGAUAGAUUGCUUCAGCAAAGUGAACUGUGAGAUCUCCAGGACAGAGGGAGAAAGAUCUG: 2.1
UCCUUUCUAAUUUUUACUGAACUGAAAGCACAAAGAAGACUACACAGAAAAUCUGGAAACAGUUGCAGGUGUUGGGAGGAAGAUGAAAUCGAGCUGUCUUUUAACUUUUG: 0.845
CAUCCACUACCAUGUGCACUGACUGGCCUCAUUUUAUGAAGGAAGAGACAGGACCAGAGAGGCGAUGUCACACAGCCAGUGAUGUCAGGACAUAAAUUCAGAGUGGCUGG: 0.278
AUUUAUAUUUCUCUGUGCAUAUAUAGUAUUUAUCUUUUCUAAUCACUUGUUUCUGUGUAGGAGGUUGAGCUUGUCUUCCAAAAGCCAAGGCGAUGCUACACUGUCCUGUU: 0.71
ACAAGAGACUCUCUUUUUAAUUCCUUGAGUACCCUUUGCCCCACUUCCAAGAGAGGACAGCAAGUCCCCUGACACUGCAAAUUUCAUUUGAGCCUAGGGAGCUGGGAAAA: 0.557
AGGAAACAGCCCAUGGGGUUCAGCUCUGCAUCCUCCUCUUUAAGUGAAUUAAAGUGGUUUUCCCAGAGGGAAAGGUGUCAUGCUUGAGGGAACAAUGUCCUAGGCUGGGU: 0.407
GACCUCUUCAAGUUUUAGGGCUGCCCCUGCCAUCCCUAUUGGAGAUUGUGAAUCCUGCUGUCUGUGCAGGGCUCAUAGUGAGUGUUCUGUGAGGUGGGUGGAGACUCCUC: 0.485
CCACCCAUCCACUCCUUGCCAAGUGUUACCCAGAUGGUGGAGGAUGUGAAGGGAUUGCACCAAGCCACAUUCACUCUCUCUGUGGCCUUUCUUCCUCUGGGCAAAGAAGG: 0.43
CCGUGGAGGUCCUGUCCACAGCUGGACAGGAGAGACACCGCCUGCGGUGGUUCAUUCCUUUCAGCCAUCGUCCUUUCCUCCGGCGGACAGCUGCUUACAUGUUCAUCUCU: 0.369
AGCCUGGUCUACAGAGUAAGUUCUAGGACCAAACCCAAAAAAUAAAGCAAAAACAAAAGGAGGUAUUAAGUCCAGUUUCCAGGCUACUUGCUGUGUACAUCAAGAAAAUU: 0.297

Block 3
Target: Ras GTPase-activating protein-binding protein 1, full length (G3BP1, Homo sapiens, UniProt Q13283)
UniProt Q13283, sequence (whole entry, looked up): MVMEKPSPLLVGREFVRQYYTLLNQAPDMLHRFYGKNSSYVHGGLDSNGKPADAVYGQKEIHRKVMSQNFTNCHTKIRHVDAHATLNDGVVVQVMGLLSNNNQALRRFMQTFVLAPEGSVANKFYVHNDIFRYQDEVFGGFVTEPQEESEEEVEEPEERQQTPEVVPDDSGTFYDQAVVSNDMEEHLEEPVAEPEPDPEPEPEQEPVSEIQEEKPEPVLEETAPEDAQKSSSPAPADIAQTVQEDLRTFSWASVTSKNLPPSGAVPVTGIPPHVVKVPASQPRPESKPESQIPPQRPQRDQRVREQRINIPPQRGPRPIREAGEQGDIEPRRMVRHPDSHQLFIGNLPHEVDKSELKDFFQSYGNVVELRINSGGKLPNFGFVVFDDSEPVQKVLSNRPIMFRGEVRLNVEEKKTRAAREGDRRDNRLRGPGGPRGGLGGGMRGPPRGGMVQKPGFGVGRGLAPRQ
Technique: RNA Bind-n-Seq
Molecule type: RNA
Matrix: in vitro
Concentration: 200 nM
Notes: whole 134-nt RNA, ends assumed
Together with: 150 mM KCl
Baseline: input library
Reading: higher = stronger binding
Endpoint: log2 enrichment
Constant ends, left off below: GGGAGUUCUACAGUCCGACGAUC … UGGAAUUCUCGGGUGUCAAGG
CACGGACAACACGCACCCACACAGACACAGAGGGAAGGGGUUGGGAUGGGGACAGGGUGCACAGCAGGGCGGGGUAGGACCCCAGCCCCU: 1.93
CCUGUGCUACACAUCGUAUGUACCGAAUCGGGGUUUUUUUGGGGAGGGGAAAAAAAGGGGAAAGUAUUAUGUUACGCCGUUCGGAUCUGC: 0.0436
UCCUGUGCUACACAUCGUAUGUACCGAAUCGGUUUUUUUGGAAAAAAAGGAAAAAAAGGAAAGUAUUAUGUUACGCCGUUCGGAUCUGCA: -0.776
UCAAGUCCUGUGCUACACAUCGUAUGUACCGAAUCGGGGUUGGGUUGGGUUGGGAAAGUAUUAUGUUACGCCGUUCGGAUCUGCACUUCC: 1.05
GCAGGAAGUAAAAACAAAUGGAAAUGUUUCGGAUAGUGGCAGGGGUGGGGGUUGCUAAGGAAAGGGUGGGAUGGGAGUGGGUAAAGAGUU: 1.22
ACCAUGCAGGUGGGCAUCUUUGGGAAGUGGGGCAAGGGGGGGAUAGGGAGGGGGGUAACACUUUGGGAACAGGUGGUCCCAGAUCGUUUC: 1.24
UUGUGAGAGCCACAGGAAAAGCAAGAAGGAGAAGAAGAAAAAGAAAAAGAGGAAACACAAGAAAGAGAAGAAGAAGAAAGACAAAGAGCA: 0.191
AGUCCUGUGCUACACAUCGUAUGUACCGAAUCGGGGUUUUUUUGGGGUGGGGAGGGGAAAGUAUUAUGUUACGCCGUUCGGAUCUGCACU: 0.756
CAAGUCCUGUGCUACACAUCGUAUGUACCGAAUCGGGGAAAGGGGAAAGGAAAGGAAAGUAUUAUGUUACGCCGUUCGGAUCUGCACUUC: -0.414
UGGCCCUGGUGGCAUGCGGGGAGGAAGAGGUGGCCUCAUGGAUCGUGGUGGUCACGGUGGAAUGUUCAGAGGUGGCCGUGGUGGAGACAG: -0.0378
GCAGGAAGUAAAAACAAAUGGAAAUGCUUCGGAUAGUGGCAGGGGUGGGGGUUGCUAAGGAAAGGGUGGGAUGGGAGUGGGUAAAGAUUU: 1.02
CUCAAGUCCUGUGCUACACAUCGUAUGUACCGAAUCGGGUUGGGGUUGGUUGGGAAAGUAUUAUGUUACGCCGUUCGGAUCUGCACUUCC: 0.573
GCAGGAAGUAAAAACAAAUGGAAAUGCUUCGGCUAGUGGCAGGGGUGGGGGUUGCUAAGGAAAGGGUGGGAUGGGAGUGGGUAAAGAGUU: 0.97
GUCCUGUGCUACACAUCGUAUGUACCGAAUCGGGAAAGGGAAAAAGGGAAAAAAAGGGAAAGUAUUAUGUUACGCCGUUCGGAUCUGCAC: -0.503

Block 4
Target: RING finger protein unkempt homolog, zinc fingers 1-6, GST-SBP tag (UNK, Homo sapiens, UniProt Q9C0B0, residues 30-357)
UniProt Q9C0B0, sequence (30-357, looked up): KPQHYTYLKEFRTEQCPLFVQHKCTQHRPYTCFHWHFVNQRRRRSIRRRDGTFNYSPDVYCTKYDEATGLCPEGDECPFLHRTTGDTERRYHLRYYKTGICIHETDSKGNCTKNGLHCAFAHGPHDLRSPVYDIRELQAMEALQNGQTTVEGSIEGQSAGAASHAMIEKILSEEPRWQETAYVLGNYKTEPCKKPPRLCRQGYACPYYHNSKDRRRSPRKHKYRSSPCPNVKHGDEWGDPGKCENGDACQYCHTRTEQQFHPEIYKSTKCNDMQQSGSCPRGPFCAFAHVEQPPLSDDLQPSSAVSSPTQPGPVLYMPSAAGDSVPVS
Technique: RNA Bind-n-Seq
Molecule type: RNA
Matrix: in vitro
Concentration: not given
Notes: RNA with constant flanks, ends assumed
Baseline: input RNA pool
Reading: higher = stronger binding
Endpoint: bound/input enrichment
Constant ends, left off below: GGGAGUUCUACAGUCCGACGAUC … CAACAGAGGAUUGAGCAUCA
ACCUCGUUUCUUUAUCUUCUUUUUUAUUUUCUUUCUUUUUCUUCGUUUUUUUUUUUUUUCCCGUGUUGUUACCCACGCCAUUUUACGUCUCCUUCACUGAAGGGCUAGAGUUUUAACUUU: 16.4 ratio
GCGGAGAAGGACUCUCUGGACCCCUCCUUCACGCACGCCCUGCGCUUGGUGAACCGAGAAACCGAAAAGUUUCAAAAGGGAGAAGGCAAGGAGGAAGAGAAGUACAUUGACGUGGUGAUA: 0.196 ratio
CAAACUUAUCAAGAAAUAGUUACCAGUCAUUCCGCAGCAUCCUGAGAACAGUUAAAAACACAUUUCACCGUAAUGCCCUUCCAUUUUGGUAAUACUAAGCUGAACAUUUAAAAAUCUUGG: 0.236 ratio
CAAGUAUUUUAAUUUAAGUUCAGUGAACUUUUUUGUAGCUGGGUUAAAUCUUUUUAUUUUCCGUAUGGCCUUAUGGCAAAGAACACUGUAUUAUUUUAAUAAUCACACGAUUGUGACGGA: 0.591 ratio
ACCGCAGCUGCUGCGCCUAUGAUUGGCUAUCCCAUGCCAACAGGGUAUUCUCAAUAAGACUUCCGAAGUAUAUGUAAAUGUCUGUUUUUCAUAAUUGCUCUUUAUAUUGUGUGUUAUCAG: 0.281 ratio
UUGCUGUCCAAAAUUGAUGGCGUGGAGCAGCUAAACAACAUCCUAGUCAUUGGAAUGACCAACCGACCAGAUCUGAUAGAUGAGGCUCUUCUUAGACCUGGAAGACUGGAAGUUAAAAUG: 0.169 ratio
GUGUGAGCCUGCGCAGGACAGUUUCAGGUGGUUUUAAAGAACACGUGGAAAUCCCUUGAAUUCCGGACCUGGUUAACCAGAAAGAUAAGACUGUUCUUAACGACCUAGAUGAUUCUGUUC: 0.292 ratio
AAAUGCUCAGUUCUAACUAAUGAAAUGGAUUUCCCAGUAGGGGUUUCUGCAUAUCACCUGUACCGCCGUUAUAUGCAUAUGUUUCUGUGCAUGUUCUCUACACAAUUGUAAGGUGUCACU: 0.291 ratio

Other studies, line by line
PhoQ, residues 284 288 289 292 302 303 SQSLSM — fold induction (PhoP, residues 12 14 15 18 19 TPWLV (Escherichia coli, UniProt P23836); Sort-seq, item: YFP reporter; E. coli; PhoQ-PhoP variant library, together with: 10 µM Mg2+; baseline: high Mg2+ state, higher = stronger signaling): 1.79

Excerpt of the above (block 1):
PPAKRRLALGESG [E8A]: 0.33
PPAKKRLELGESG [R5K]: -0.362
PPAKRALELGESG [R6A]: 0.353
PPAKRRLELAESG [G10A]: 0.613
PPAKRRLELGESA [G13A]: 0.383
PPAKRRLEAGESG [L9A]: 0.464
